Results gathered from unrelated publications.
Compare with care: the assays were run in different laboratories. Several values in a cell are separate wells, animals, samples, runs or records. Numbers after ± are the reported error.
Technique: steady-state kinetics
B1: nudC (Escherichia coli, UniProt P32664); chain MDRIIEKLDHGWWVVSHEQKLWLPKGELPYGEAANFDLVGQRALQIGEWQGEPVWLVQQQRRHDMGSVRQVIDLDVGLFQLAGRGVQLAEFYRSHKYCGYCGHEMYPSKTEWAMLCSHCRERYYPQIAPCIIVAIRRDDSILLAQHTRHRNGVHTVLAGFVEVGETLEQAVAREVMEESGIKVKNLRYVTSQPWPFPQSLMTAFMAEYDSGDIVIDPKELLEANWYRYDDLPLLPPPGTVARRLIEDTVAMCRAEYE
B2: enzyme (Populus trichocarpa, UniProt A0A2K2BRQ9); chain MVYQKKIVEEVSGWLRIFDDGWVDRTWIGPPQVKFMAEPVPPHEEFIEGVAIRDVTIDENSGLSVRIYLPQHEPDHYTDNSDKLPLIVHFHGGGFCISQADWYMYYYIYSRLARSAPAIVVSVYLRLAPEHRLPAAIDDGFSALMWLRALAQGQESYEPWLNNHGDFNRVFLIGDSSGGNLVHHVAARAGQVDLSPMRLAGGIPVHPGFVRSERSKSEMEQPESPFLTLDMVDRFLKLALPKGCTKDHPFTCPMGHAAPPLDSLNLPPFLLCVAEADLIRDTEMEYYEAMKKANKDVELLINPGVGHSFYLNKIAVDMDPHTAAQTTGLLEGIVEFIKKH
B3: enzyme Y414S/Y415A (Methanosarcina mazei, UniProt Q8PVB1); chain MSEQRSVPLREHLLALKPCRHGGLIQETSETYGIPENEILDFSANFNPLGSPFDYPENGLNFEDIIKKSCGKLLEYPDNRYVEFREAAARFVGLGVTPQSIVPGNGSTEIVRLVVESVIEKGDKVLLPWPTFGEYEMQCRITGAEPVCPSQEEVNTLPDEVLEEAKILFICNPNNPTGKLRTREELKVLAERCREHKTLLYVDEAFIELSDPSQSVADLPAENNYVFVMRSLTKDFAIPGIRMGFGIAPPAMADILNTARLSWNLGAIANNTGIALLNIEGGIDSPYLKKAREMILKEGETLKAKIDRIRGFEAGEVNVNFILVDVSKFMLNSSELTARLAARGVLVRDCVSFHGLGKNYIRVAVRTEKENDRLIAAIGDVITEWGREQAKNELQHVIEKASEEGIGGRKTCESAPCHFEGQNCTFCFCPFYPCENEKTGGKWIQSSRGGRVWSCVDCHLVHKKEIAQKILDCLMHEGDTDELVKVAWKEVMEPIL
B4: PYCR2 R119C (Homo sapiens, UniProt Q96C36); chain MSVGFIGAGQLAYALARGFTAAGILSAHKIIASSPEMNLPTVSALRKMGVNLTRSNKETVKHSDVLFLAVKPHIIPFILDEIGADVQARHIVVSCAAGVTISSVEKKLMAFQPAPKVICCMTNTPVVVQEGATVYATGTHALVEDGQLLEQLMSSVGFCTEVEEDLIDAVTGLSGSGPAYAFMALDALADGGVKMGLPRRLAIQLGAQALLGAAKMLLDSEQHPCQLKDNVCSPGGATIHALHFLESGGFRSLLINAVEASCIRTRELQSMADQEKISPAALKKTLLDRVKLESPTVSTLTPSSPGKLLTRSLALGGKKD
B5: enzyme K56A (Nitrosopumilus maritimus, UniProt A9A5X4); chain MDSQKFDSIIFDCDGVLVDITQSYDKTIDKTCRYVLKEFAKIDSITIDHKIIDGFASSGGFNDEVDLVYAAILSLYTANKLNKKPSEFIYDVISNTDKTGIRSVQSYLESIYDVSEFLSKLGSLGDRHNNPVYSIFDQFFFGPELYGKLFDKQSKFSEEGMISNDKVILSVSLLETLQKEFGKKIAVVTGRGIESIRYSLKDMMDYFDTKNSAFLEDEPRELAKPNPATLIRAIQSMESKNCLYVGDSMEDYMMAKDAAQAGHSTTFCAIVGTSTNPEDRRKLFADSGVEMILESINDIPKVLNLV
B6: enzyme (Plasmodium falciparum, UniProt C0H484); chain MVREAHELLDGSRPIPIDKITYELSQNIILAFDNHENINNKDIQIEIEGRVGLVIDKNKNRIKLPINTDAIIENNYSDFQAGIDRESFEYLLDYFHNMTLKKRLSIRNNDNNNNNMDNNNNNMDNNNNIHIHNSGNNTNQTHSYDKNADDNKPTCNYSYDKKNACIYDFLELKTTKSIDKYYVIKNNNSRIRTTTYLNDDNKQETESMMIQSLQKDNLNIWNVYTGNNYDYFDDDEEDDDDDYNNNNNNNNGDTGTKTNIATNNTHGLTTSKSQHIYNNLVDKNDSIDYRISINIEYTKPISKLYLSKNTPVHERLKERTTFINTYLGLQVDMTKIKTKNNELYEVEIEIPSKTIFKAMSNLRNKKDSNYLHFICSNLVNNIRGICSQLNVFKKSKHMLKNTMITKLNNNSNNQNNLSLLPNHPNDDTISSKEKEKFKKYIHSVLPIVGDY
B7: enzyme (Arabidopsis thaliana, UniProt Q9C969); chain GSFGMLSRRTLGTDMPVMAQIRSLMAELTNPMSLAQGVVHWQPPQKALEKVKELVWDPIISSYGPDEGLPELRQALLKKLREENKLTNSQVMVTAGANQAFVNLVITLCDAGDSVVMFEPYYFNSYMAFQMTGVTNIIVGPGQSDTLYPDADWLERTLSESKPTPKVVTVVNPGNPSGTYVPEPLLKRIAQICKDAGCWLIVDNTYEYFMYDGLKHCCVEGDHIVNVFSFSKTYGMMGWRLGYIAYSERLDGFATELVKIQDNIPICAAIISQRLAVYALEEGSGWITERVKSLVKNRDIVKEALEPLGKENVKGGEGAIYLWAKLPEGHRDDFKVVRWLAHRHGVVVIPGCASGSPGYLRVSFGGLQEVEMRAAAARLRKGIEELLHHGMVE
B8: enzyme (Lactiplantibacillus plantarum, UniProt Q06115); chain CTAITYQSYNNYFGRNFDYEISYNEMVTITPRKYPLVFRKVENLDHHYAIIGITADVESYPLYYDAMNEKGLCIAGLNFAGYADYKKYDADKVNITPFELIPWLLGQFSSVREVKKNIQKLNLVNINFSEQLPLSPLHWLVADKQESIVIESVKEGLKIYDNPVGVLTNNPNFDYQLFNLNNYRALSNSTPQNSFSEKVDLDSYSRGMGGLGLPGDLSSMSRFVRAAFTKLNSLSMQTESGSVSQFFHILGSVEQQKGLCEVTDGKYEYTIYSSCCDMDKGVYYYRTYDNSQINSVSLNHEHLDTTELISYPLRSEAQYYAVN
B9: enzyme (Chlamydomonas reinhardtii, UniProt A0A2K3D977); chain ASDSVLAVWRKADAVCFDVDCTITVNDSLDLLAEFMGVKEQVEILTNKAMDGSLSLEQALEERLNIINCSPDDIKRFIKAHPPASRMAPGIKELINSLQARGKAIYLISGGFRELTLPIAAYLGIPKENVFANRMNWQWDDETGMPTKLVGFDMSEPTAHNQGKPQAIARIRQRNPYNTVVMIGDGITDLEAVQTTGGADLFIGSGVVVERPAVAREADWYVYDYTDLLRTMARYSVAMVGSGAWACAAVRMIAQNTQVDDAADEFVDEVRMWVYEEDFEGKKLTEVINQTHTNPKYFPGFDLGPNVVAVPNIVDAVADADLIVFCAPHQFLHHICKQLVGKIKPGAAAISLTKGMRVRPEGPQLISQMVRRLLGIDCCVLMGANIATDIGREQLSEAVIGYDNLDAATLFQKIFQRPYFRVNLLPDPVGAEMCGTLKNIVALGAGMVDGLGLGPNSKAAIIRQGLVEMRAFSKALYPSVRDDTFMESCGVGDLVATCYGGRNRLVACEWTKAQMEGKPRTFEDLETDLLKGQKLQGVLTSNEVQEILKVRGWESQYPLFTTVNRIINGYLPPKYVVEFVAGAKYHIRRPGTDDEEIVPVRPKRPAAAGGVATAPILAA
B10: enzyme (Methylibium petroleiphilum, UniProt A2SI32); chain PFAQIYLIEGRTEEQKRAVIEKVTQAMMEAVGAPKENVRVWIHDVPKENWGIGGVSAKALGR

Molecule | substrate | conditions | kcat/Km
putA (Escherichia coli, UniProt P09546) | CC1=C(C)C(=O)C(C)=C(C)C1=O | pH 7.4, 20 °C, added: proline 200 mM | 8400 ± 1700 M⁻¹ s⁻¹
enzyme N248Y/Q325R/R246H/R328K/S219F (Arabidopsis thaliana, UniProt O24495) | C[C@@H](O)C(=O)SC[C@H](NC(=O)CC[C@H](N)C(=O)O)C(=O)NCC(=O)O | pH 7.2, 25 °C | 70000 ± 30000 M⁻¹ s⁻¹
HNL E79H/G176S/H103V/K236M/N104A/T11G (Hevea brasiliensis) | CC(=O)Oc1ccc([N+](=O)[O-])cc1 | pH 7.2, 22 °C | 867 M⁻¹ s⁻¹
acsA D449E/I222V (Pseudomonas chlororaphis) | CCCC(=O)O | pH 7 | 1330 ± 167 M⁻¹ s⁻¹
B1 (nudC) | Nc1ncnc2c1ncn2[C@@H]1O[C@H](COP(=O)(O)OP(=O)(O)OP(=O)(O)OP(=O)(O)OP(=O)(O)OC[C@H]2O[C@@H](n3cnc4c(N)ncnc43)[C@H](O)[C@@H]2O)[C@@H](O)[C@H]1O | added: Mg2+ | 960 M⁻¹ s⁻¹
enzyme (Treponema denticola, UniProt Q73LY9) | CC(=O)N[C@H]1[C@H](Oc2ccc([N+](=O)[O-])cc2)O[C@H](CO)[C@@H](O[C@@H]2O[C@H](CO)[C@H](O)[C@H](O)[C@H]2O)[C@@H]1O | pH 6, 40 °C | 1570 M⁻¹ s⁻¹
B2 (enzyme) | O=C(OCc1ccccc1)c1ccccc1O | pH 7, 25 °C | 38000 ± 10400 M⁻¹ s⁻¹
B3 (enzyme Y414S/Y415A) | Nc1ncnc2c1ncn2[C@@H]1O[C@H](COP(=O)(O)OP(=O)(O)OP(=O)(O)O)[C@@H](O)[C@H]1O | pH 8.5, 25 °C, apparent, anoxic, added: L-Thr 10 mM | 46 ± 20 M⁻¹ s⁻¹
B4 (PYCR2 R119C) | NC(=O)C1=CN([C@@H]2O[C@H](COP(=O)(O)OP(=O)(O)OC[C@H]3O[C@@H](n4cnc5c(N)ncnc54)[C@H](OP(=O)(O)O)[C@@H]3O)[C@@H](O)[C@H]2O)C=CC1 | pH 7.5, 37 °C, apparent, cofactor varied, added: DL-P5C 5000 µM | 2800 ± 500 M⁻¹ s⁻¹
enzyme (Schizosaccharomyces pombe, UniProt P78804) | NC(=O)c1ccc[n+]([C@@H]2O[C@H](COP(=O)(O)OP(=O)(O)OC[C@H]3O[C@@H](n4cnc5c(N)ncnc54)[C@H](O)[C@@H]3O)[C@@H](O)[C@H]2O)c1 | pH 7, 30 °C, apparent | 2.8 ± 0.3 M⁻¹ s⁻¹
B5 (enzyme K56A) | N[C@H](COP(=O)(O)O)Cc1c[nH]cn1 | pH 7.8, 25 °C | 2.8 ± 0.6 M⁻¹ s⁻¹
B6 (enzyme) | O=P(O)(O)OP(=O)(O)OP(=O)(O)OC[C@H]1O[C@@H](n2cnc3c(O)ncnc32)[C@H](O)[C@@H]1O | added: Mn2+ | 23000 ± 3000 M⁻¹ s⁻¹
B7 (enzyme) | O=C(O)C(=O)Cc1ccc(O)cc1 | – | 26800 M⁻¹ s⁻¹ and 54700 M⁻¹ s⁻¹ and 29000 M⁻¹ s⁻¹
enzyme Y26F (Homo sapiens, UniProt Q08623) | O=c1[nH]cc([C@@H]2O[C@H](COP(=O)(O)O)[C@@H](O)[C@H]2O)c(=O)[nH]1 | pH 7, 25 °C | 350000 M⁻¹ s⁻¹
acs (Salmonella enterica, UniProt Q8ZKF6) | CCC(=O)O | pH 7, 30 °C, apparent | 12000 M⁻¹ s⁻¹
B8 (enzyme) | C[C@H](CCC(=O)N[C@@H](Cc1ccc(O)cc1)C(=O)O)[C@H]1CC[C@H]2[C@@H]3[C@H](O)C[C@@H]4C[C@H](O)CC[C@]4(C)[C@H]3C[C@H](O)[C@]12C | pH 6.2, 37 °C | 11000 ± 1170 M⁻¹ s⁻¹
B9 (enzyme) | O=C(CO)COP(=O)(O)O | pH 7.5, added: NADH 500 µM | 300000 ± 60000 M⁻¹ s⁻¹
gdh E198G/N192S/N97F (Bacillus subtilis) | NC(=O)c1ccc[n+]([C@@H]2O[C@H](COP(=O)(O)OP(=O)(O)OC[C@H]3O[C@@H](n4cnc5c(N)ncnc54)[C@H](O)[C@@H]3O)[C@@H](O)[C@H]2O)c1 | pH 7, 50 °C | 82500 ± 1830 M⁻¹ s⁻¹
enzyme (Bacteroides fragilis, UniProt Q5LAD6) | C[C@@H]1O[C@@H](Oc2ccc([N+](=O)[O-])cc2)[C@@H](O)[C@H](O)[C@@H]1O | pH 7, 37 °C | 3950 M⁻¹ s⁻¹
B10 (enzyme) | O=C(O)/C=C/C=C(\O)C(=O)O | pH 7.3, 24 °C | 3.3e+07 M⁻¹ s⁻¹

For quick reference, copied from above:
Molecule | substrate | conditions | kcat/Km
enzyme N248Y/Q325R/R246H/R328K/S219F (Arabidopsis thaliana, UniProt O24495) | C[C@@H](O)C(=O)SC[C@H](NC(=O)CC[C@H](N)C(=O)O)C(=O)NCC(=O)O | pH 7.2, 25 °C | 70000 ± 30000 M⁻¹ s⁻¹
B4 (PYCR2 R119C) | NC(=O)C1=CN([C@@H]2O[C@H](COP(=O)(O)OP(=O)(O)OC[C@H]3O[C@@H](n4cnc5c(N)ncnc54)[C@H](OP(=O)(O)O)[C@@H]3O)[C@@H](O)[C@H]2O)C=CC1 | pH 7.5, 37 °C, apparent, cofactor varied, added: DL-P5C 5000 µM | 2800 ± 500 M⁻¹ s⁻¹
